Results of several laboratories.
Lines come from different studies, so protocols differ. Several values in a cell are separate wells, animals, samples, runs or records. ± gives the spread as reported.
YWHAG/RELA phospho-Ser45 p65 peptide: YWHAG/RELA, phospho-Ser45 p65 peptide (Homo sapiens, UniProt P61981+Q04206)
UniProt Q04206, sequence (whole entry, looked up): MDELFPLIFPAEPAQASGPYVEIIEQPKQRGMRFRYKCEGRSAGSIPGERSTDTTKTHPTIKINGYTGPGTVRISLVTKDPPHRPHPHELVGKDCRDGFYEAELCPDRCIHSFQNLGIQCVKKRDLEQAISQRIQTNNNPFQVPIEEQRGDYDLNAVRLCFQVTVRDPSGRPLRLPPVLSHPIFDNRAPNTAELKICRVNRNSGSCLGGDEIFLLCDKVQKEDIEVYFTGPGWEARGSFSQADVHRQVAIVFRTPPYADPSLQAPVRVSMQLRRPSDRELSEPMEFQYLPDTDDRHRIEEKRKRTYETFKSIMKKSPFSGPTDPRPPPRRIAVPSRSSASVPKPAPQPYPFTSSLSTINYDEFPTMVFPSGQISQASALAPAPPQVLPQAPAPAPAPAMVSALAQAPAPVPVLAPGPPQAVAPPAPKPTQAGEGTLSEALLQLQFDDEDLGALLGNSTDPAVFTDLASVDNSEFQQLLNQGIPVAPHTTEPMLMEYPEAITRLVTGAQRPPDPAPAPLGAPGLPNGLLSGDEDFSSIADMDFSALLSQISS
UniProt P61981, sequence (whole entry, looked up): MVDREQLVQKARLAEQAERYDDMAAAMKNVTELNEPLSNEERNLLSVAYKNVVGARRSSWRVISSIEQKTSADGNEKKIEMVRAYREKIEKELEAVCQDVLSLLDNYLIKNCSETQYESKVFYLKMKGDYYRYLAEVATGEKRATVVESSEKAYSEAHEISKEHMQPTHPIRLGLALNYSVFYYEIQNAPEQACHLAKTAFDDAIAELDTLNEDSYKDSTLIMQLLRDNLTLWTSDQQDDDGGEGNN
Nuclear receptor subfamily 2 group C member 2 ligand-binding domain: Nuclear receptor subfamily 2 group C member 2, ligand-binding domain (Homo sapiens, UniProt P49116)
UniProt P49116, sequence (whole entry, looked up): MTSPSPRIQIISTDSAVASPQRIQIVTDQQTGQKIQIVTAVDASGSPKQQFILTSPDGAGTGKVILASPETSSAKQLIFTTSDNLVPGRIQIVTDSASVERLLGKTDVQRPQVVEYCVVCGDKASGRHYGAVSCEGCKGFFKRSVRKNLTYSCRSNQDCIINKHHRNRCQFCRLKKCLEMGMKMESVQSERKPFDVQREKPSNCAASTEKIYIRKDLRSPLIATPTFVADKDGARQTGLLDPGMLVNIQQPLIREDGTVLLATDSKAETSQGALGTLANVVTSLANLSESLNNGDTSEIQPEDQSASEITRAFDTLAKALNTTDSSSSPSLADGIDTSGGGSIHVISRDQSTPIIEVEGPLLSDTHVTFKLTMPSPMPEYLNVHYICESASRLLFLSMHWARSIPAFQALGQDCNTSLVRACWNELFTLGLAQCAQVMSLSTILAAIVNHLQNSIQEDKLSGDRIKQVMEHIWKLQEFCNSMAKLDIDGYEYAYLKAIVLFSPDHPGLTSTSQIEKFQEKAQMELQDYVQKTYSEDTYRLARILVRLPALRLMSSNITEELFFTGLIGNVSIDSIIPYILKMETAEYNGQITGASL

Structure (SMILES) | tested on | assay | system | setting | how to read | endpoint | value
NCCCOc1cc(NC(=O)c2cc(Cl)cc(C(=O)Nc3cc(OCCCN)c4ccccc4n3)n2)nc2ccccc12 | double-stranded DNA | FRET melting |  | 1 µM, pH 7.4, 60 mM potassium, with: oligonucleotide 200 nM |  | delta Tm | 0.4 K
c1ccc2c(Cc3c[nH]c4ccccc34)c[nH]c2c1 | OCI-Ly1 |  |  | 0.5 µM, 120 h |  | viability | 158%
NC(=O)c1cnc2[nH]ccc2c1N[C@@H]1[C@@H]2CC3C[C@H]1C[C@@](O)(C3)C2 |  | flow cytometry, measured: CD8+ effector memory T cells | Japanese healthy subjects, peripheral blood | oral, 30 mg twice daily, day 7 |  | change from baseline | 0.22%
Cc1cc(Nc2nn(-c3ccccc3)c(=O)c3ccccc23)n[nH]1 | OCI-Ly1 |  |  | 0.5 µM, 120 h |  | viability | 104%
CC(=Nc1ccc(N=Cc2ccc3nccnc3c2)cc1)N(C)C | Necator americanus |  | infected hamsters | oral, 50 mg/kg single | baseline: untreated | worm burden reduction | 88.9 ± 7%
O=C(CCCCCCC(=O)Nc1ccc(I)cc1)NO | OCI-Ly1 |  |  | 0.1 µM, 120 h |  | viability | 87.6%
Oc1ccccc1-c1n[nH]cc1-c1ccnc2ccccc12 | RAD53 (Candida albicans) | kinase binding, MIB/MS competition | Candida albicans lysate | 1 µM | baseline: DMSO | log2 fold change | 1.11
NCCOc1cc(NC(=O)c2cc(OCc3c[nH]nn3)cc(C(=O)Nc3cc(OCCN)c4ccccc4n3)n2)nc2ccccc12 | double-stranded DNA | FRET melting |  | 1 µM, pH 7.4, 60 mM potassium, with: oligonucleotide 200 nM |  | delta Tm | 0 ± 0.1 K
C[C@H]1C[C@H]2CSC(N)=N[C@@]2(c2nc(NC(=O)c3ccc(OC(F)F)cn3)cs2)CO1 |  |  | healthy adults, fed, plasma | oral, 200 mg single dose, 8 h | baseline: baseline, placebo-adjusted | plasma Aβx-40 change | -62%
CCn1cc(-c2cc(Cn3ccnc3)cc3c2CCN([C@H](c2cc(OC)ccn2)C2CC2)C3=O)c(C(F)(F)F)n1 | SW1417 | cell growth, inhibitor |  | 120 h |  | EC50 | 17.8 µM
Nc1nccc2c1ncn2[C@@H]1C=C(CO)[C@@H](O)[C@H]1O | OCI-Ly1 |  |  | 1 µM, 120 h |  | viability | 3.89%
C#CCOc1cc(C(=O)Nc2cc(OCCN)c3ccccc3n2)nc(C(=O)Nc2cc(OCCN)c3ccccc3n2)c1 | human telomeric G-quadruplex DNA | FRET melting |  | 1 µM, pH 7.4, with: 60 mM potassium |  | ΔTm | 16 ± 1 K
COc1c(O)c(C)cc2c1C(=O)c1c(ccc(O)c1O)C2=O | HepaRG co-cultured with HK-2 | MTT |  | 33.33 µM, 24 h | baseline: untreated control | cell viability | 95.9 ± 14.1%
Cn1cc(-c2ccc(-c3cncc(Cl)c3N3CCC4(CCNC4=O)CC3)cc2)cn1 | COLO 205 | gene expression, microarray, measured: SLC2A1 mRNA |  | concentration not given, 6 h | baseline: untreated cells | log2 fold change | 3.07
CC(=O)Nc1ccc(C(=O)Nc2ccccc2N)cc1 | OCI-Ly1 |  |  | 0.1 µM, 120 h |  | viability | 5.72%
O=Cc1ccc(C(=O)N2CCCC(O)C2)cc1 (stereo not drawn) | YWHAG/RELA phospho-Ser45 p65 peptide | ternary complex formation, stabilizer, fluorescence anisotropy |  |  |  | EC50 | > 1000 µM
CN(C)CCCOc1cc(NC(=O)c2cc(Cl)cc(C(=O)Nc3cc(OCCCN(C)C)c4ccccc4n3)n2)nc2ccccc12 | double-stranded DNA | FRET melting |  | 1 µM, pH 7.4, 60 mM potassium, with: oligonucleotide 200 nM |  | delta Tm | 0.3 ± 0.2 K

Structure (SMILES) | tested on | assay | system | setting | how to read | endpoint | value
O=C(O)CNC(=O)Cc1ccccc1 |  |  | ventricular cardiomyocytes, C57BL/6 mouse | dose not given, 0.528 s |  | sarcomere length | 1.62 µm
O=C(/C=C/C=C/C=C/C1CCCCC1)NC1=C[C@@](O)(/C=C/C=C/C=C/C(=O)NC2=C(O)CCC2=O)[C@@H]2O[C@@H]2C1=O | NCI-H3255 | cell growth, CellTiter-Glo |  | 78 h |  | GI50 | 11.4 µM
COc1cc(C(=O)Nc2cc(OC)c3ccccc3n2)nc(C(=O)Nc2cc(OC)c3ccccc3n2)c1 | double-stranded DNA | FRET melting |  | 1 µM, pH 7.4, 60 mM potassium, with: oligonucleotide 200 nM |  | delta Tm | 0 ± 0.2 K
CC(C)NCC(O)c1ccc(O)c(O)c1 (stereo not drawn) |  |  | ventricular cardiomyocytes, C57BL/6 mouse | dose not given, 0.832 s |  | sarcomere length | 1.52 µm
NCCCOc1cc(NC(=O)c2cc(OCc3c[nH]nn3)cc(C(=O)Nc3cc(OCCCN)c4ccccc4n3)n2)nc2ccccc12 | c-kit2 G-quadruplex DNA | FRET melting |  | 1 µM, pH 7.4, with: 60 mM potassium |  | ΔTm | 7.4 ± 0.3 K
O=C(CCCCCCC(=O)Nc1cccnc1)NO | OCI-Ly1 |  |  | 0.5 µM, 120 h |  | viability | 77%
CN[C@H](CC(C)C)C(=O)N[C@H]1C(=O)N[C@@H](CC(N)=O)C(=O)N[C@H]2C(=O)N[C@H]3C(=O)N[C@H](C(=O)N[C@H](C(=O)O)c4cc(O)cc(O)c4-c4cc3ccc4O)[C@H](O)c3ccc(c(Cl)c3)Oc3cc2cc(c3O[C@@H]2O[C@H](CO)[C@@H](O)[C@H](O)[C@H]2O[C@H]2C[C@](C)(N)[C@H](O)[C@H](C)O2)Oc2ccc(cc2Cl)[C@H]1O | Staphylococcus epidermidis |  | 9397, female ICR mice, peritonitis, spleen | dose not given |  | bacterial load | 8.17 log CFU and 5.82 log CFU and 6.3 log CFU and 8.39 log CFU and 8.11 log CFU
c1coc(-c2n[nH]cc2-c2ccnc3ccccc23)c1 | KNS1 (Candida albicans) | kinase binding, MIB/MS competition | Candida albicans lysate | 1 µM | baseline: DMSO | log2 fold change | -0.18
O=C(Nc1cc(OCCN2CCCC2)c2ccccc2n1)c1cc(Cl)cc(C(=O)Nc2cc(OCCN3CCCC3)c3ccccc3n2)n1 | human telomeric G-quadruplex DNA | FRET melting |  | 1 µM, pH 7.4, with: 60 mM potassium |  | ΔTm | 24.3 ± 0.6 K
COc1cnc2cccc(N3CCc4c(cc(Cn5ccnc5C)cc4-c4cn(C)nc4C(F)(F)F)C3=O)c2c1 | SCC-15 | cell growth, inhibitor |  | 120 h |  | EC50 | 0.745 µM
NCCCOc1cc(NC(=O)c2cc(OCCN)cc(C(=O)Nc3cc(OCCCN)c4ccccc4n3)n2)nc2ccccc12 | c-kit2 G-quadruplex DNA | FRET melting |  | 1 µM, pH 7.4, with: 60 mM potassium |  | ΔTm | 16.2 ± 0.7 K
OC[C@H]1OC(O)[C@H](O)[C@@H](O)[C@@H]1O (stereo partly drawn) | Nuclear receptor subfamily 2 group C member 2 ligand-binding domain | SPR imaging |  |  |  | Kd | 0.0274 nM
CC(C)(C)OC(=O)CN(Cc1ccc(Cl)cc1)Cc1ccc([N+](=O)[O-])s1 | OCI-Ly1 |  |  | 0.1 µM, 120 h |  | viability | 117%
OCCOCCN1CCN(C(c2ccccc2)c2ccc(Cl)cc2)CC1 (stereo not drawn) | Nuclear receptor subfamily 2 group C member 2 ligand-binding domain | SPR imaging |  |  |  | Kd | 7.42 nM
O=c1ncccn1[C@@H]1O[C@H](CO)[C@@H](O)[C@H]1O | OCI-Ly1 |  |  | 0.1 µM, 120 h |  | viability | 192%
O=Cc1ccc(-n2ccnc2Br)nc1 | YWHAG/RELA phospho-Ser45 p65 peptide | ternary complex formation, stabilizer, fluorescence anisotropy |  |  |  | EC50 | > 1000 µM

Excerpt of the above:
Structure (SMILES) | tested on | assay | system | setting | how to read | endpoint | value
NCCCOc1cc(NC(=O)c2cc(OCCN)cc(C(=O)Nc3cc(OCCCN)c4ccccc4n3)n2)nc2ccccc12 | c-kit2 G-quadruplex DNA | FRET melting |  | 1 µM, pH 7.4, with: 60 mM potassium |  | ΔTm | 16.2 ± 0.7 K
OC[C@H]1OC(O)[C@H](O)[C@@H](O)[C@@H]1O (stereo partly drawn) | Nuclear receptor subfamily 2 group C member 2 ligand-binding domain | SPR imaging |  |  |  | Kd | 0.0274 nM
CC(C)(C)OC(=O)CN(Cc1ccc(Cl)cc1)Cc1ccc([N+](=O)[O-])s1 | OCI-Ly1 |  |  | 0.1 µM, 120 h |  | viability | 117%
